{"data": "Published values pooled from the literature", "note": "Parts stem from different laboratories: compare values within a part only. Substitutions count along the parent as printed."}
{"data": "Sample 1", "target": "Interferon regulatory factor 7, full length, phosphomimetic (IRF7, Homo sapiens, UniProt Q92985, residues 1-503, S471D/S472D/S475D/S476D/S477D/S483D/S484D/S487D)", "technique": "protein-binding microarray", "molecule type": "double-stranded DNA, one strand shown", "sample": "in vitro", "concentration": "2200 nM top", "notes": "60-bp whole probe", "together with": "salmon DNA 0.4 mg/ml", "relative to": "random background probes", "reading": "higher = stronger binding", "Residues (chain)": "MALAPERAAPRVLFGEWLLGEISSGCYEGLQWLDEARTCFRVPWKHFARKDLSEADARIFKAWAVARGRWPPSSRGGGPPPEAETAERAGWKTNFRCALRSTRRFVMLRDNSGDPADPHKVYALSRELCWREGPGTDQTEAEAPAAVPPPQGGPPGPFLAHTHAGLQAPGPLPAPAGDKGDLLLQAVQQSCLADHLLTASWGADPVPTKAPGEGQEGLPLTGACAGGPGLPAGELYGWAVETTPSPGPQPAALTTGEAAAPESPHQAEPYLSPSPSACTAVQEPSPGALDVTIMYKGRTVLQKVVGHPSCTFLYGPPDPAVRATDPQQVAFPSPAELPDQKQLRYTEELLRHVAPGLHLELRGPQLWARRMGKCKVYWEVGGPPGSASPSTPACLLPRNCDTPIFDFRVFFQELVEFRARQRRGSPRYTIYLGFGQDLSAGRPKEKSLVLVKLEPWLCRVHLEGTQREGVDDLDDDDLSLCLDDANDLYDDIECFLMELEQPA"}
{"Sequence": "GCCTAGCACGACGAACTGAGTATTGAGACGTGCTAGGTCTTGATTCGCTTGACGCTGCTG", "fitted relative affinity [z-score]": -0.125}
{"Sequence": "GCCTAGCACTTAGATTCCGGGACTGGATTAGTGCTAGTCTTGATTCGCTTGACGCTGCTG", "fitted relative affinity [z-score]": -0.202}
{"Sequence": "GCCTAGCACGACCGACTGGGTTTCGGGACGTGCTAGGTCTTGATTCGCTTGACGCTGCTG", "fitted relative affinity [z-score]": 1.27}
{"Sequence": "GCCTAGCACATGTTTTGAGTTTTCCTTCAGTGCTAGGTCTTGATTCGCTTGACGCTGCTG", "fitted relative affinity [z-score]": 2.71}
{"data": "Sample 2", "target": "Ras GTPase-activating protein-binding protein 1, full length (G3BP1, Homo sapiens, UniProt Q13283)", "technique": "RNA Bind-n-Seq", "molecule type": "RNA", "sample": "in vitro", "concentration": "200 nM", "notes": "whole 134-nt RNA, ends assumed", "together with": "150 mM LiCl", "relative to": "input library", "reading": "higher = stronger binding", "library": "7-deaza-guanosine replaces G", "UniProt Q13283, sequence (whole entry, looked up)": "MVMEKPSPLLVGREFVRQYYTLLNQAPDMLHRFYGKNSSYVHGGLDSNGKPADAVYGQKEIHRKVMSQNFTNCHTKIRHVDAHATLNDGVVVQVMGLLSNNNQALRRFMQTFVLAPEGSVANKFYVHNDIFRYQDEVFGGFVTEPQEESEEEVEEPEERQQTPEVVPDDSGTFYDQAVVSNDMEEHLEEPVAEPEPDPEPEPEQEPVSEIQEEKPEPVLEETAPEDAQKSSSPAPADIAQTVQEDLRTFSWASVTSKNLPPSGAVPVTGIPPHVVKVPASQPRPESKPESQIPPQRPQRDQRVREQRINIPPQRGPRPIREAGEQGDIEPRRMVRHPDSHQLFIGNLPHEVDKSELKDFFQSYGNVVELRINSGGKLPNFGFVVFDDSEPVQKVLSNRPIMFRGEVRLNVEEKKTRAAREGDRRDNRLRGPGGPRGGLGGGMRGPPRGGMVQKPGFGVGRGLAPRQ"}
{"Sequence": "GGGAGUUCUACAGUCCGACGAUCUAACUAUAGAGGAGGAUCUGAUGGAUAUGGCAGUGGACGUGGAUUUGGGGAUGGCUAUAAUGGGUAUGGAGGAGGACCUGGAGGUGGCAAUGGAAUUCUCGGGUGUCAAGG", "log2 enrichment": -0.348}
{"Sequence": "GGGAGUUCUACAGUCCGACGAUCUUAAUGAUAUAAGUAGAGAGUAGUAUCCUGGUGGAGUUGUAACCACUAUUUUUGUUUUCUAGAUCCCUAUGGUUCAGGAGGCCAGAAAUUUGGAAUUCUCGGGUGUCAAGG", "log2 enrichment": -1.49}
{"Sequence": "GGGAGUUCUACAGUCCGACGAUCUUCCUCAAGUCCUGUGCUACACAUCGUAUGUACCGAAUCGGUGGUGGGUGGAAAGUAUUAUGUUACGCCGUUCGGAUCUGCACUUCCAGCUGGAAUUCUCGGGUGUCAAGG", "log2 enrichment": 0.933}
{"Sequence": "GGGAGUUCUACAGUCCGACGAUCAAGUCCUGUGCUACACAUCGUAUGUACCGAAUCGGGGUUUUGGUUUUGGGUUUUGGGAAAGUAUUAUGUUACGCCGUUCGGAUCUGCACUUGGAAUUCUCGGGUGUCAAGG", "log2 enrichment": 0.0933}
{"data": "Further values, each from its own experiment", "CCNB1": "CCNB1, cyclin fold, Cln2 fusion (human)", "P1": "CDC6 docking peptide (human); TLKGRRLVFDNQL", "P2": "DBF4B docking peptide (human); LGYLYLLLTQSLW; partner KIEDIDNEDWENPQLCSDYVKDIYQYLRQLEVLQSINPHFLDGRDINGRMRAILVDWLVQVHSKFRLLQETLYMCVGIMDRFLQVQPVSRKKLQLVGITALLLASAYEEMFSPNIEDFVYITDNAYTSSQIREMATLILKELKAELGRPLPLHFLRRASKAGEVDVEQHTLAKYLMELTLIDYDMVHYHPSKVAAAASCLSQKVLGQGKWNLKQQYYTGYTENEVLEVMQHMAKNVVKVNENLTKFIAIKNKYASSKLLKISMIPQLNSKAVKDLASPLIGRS", "P3": "CDKN1B docking peptide (human); PSACRNLFGPVDH; partner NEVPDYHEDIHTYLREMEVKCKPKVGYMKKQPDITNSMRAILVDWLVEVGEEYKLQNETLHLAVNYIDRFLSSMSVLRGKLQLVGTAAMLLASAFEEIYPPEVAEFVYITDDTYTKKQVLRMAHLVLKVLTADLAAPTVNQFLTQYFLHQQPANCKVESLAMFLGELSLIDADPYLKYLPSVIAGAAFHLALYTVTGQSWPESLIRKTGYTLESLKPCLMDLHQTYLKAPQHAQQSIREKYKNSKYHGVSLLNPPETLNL"}
{"Substance": "P1 R6L", "target": "CCNB1", "assay": "yeast growth competition, sequencing", "test system": "yeast", "setting": "weak parent motif", "how to read": "relative to: not given, higher = stronger binding", "quantity": "normalised enrichment score", "result": 0.36}
{"Substance": "PhoQ, residues 284 288 289 292 302 303 AGGCYF", "target": "PhoP, residues 12 14 15 18 19 GQAIL (Escherichia coli, UniProt P23836)", "assay": "Sort-seq, refers to: YFP reporter", "test system": "E. coli", "setting": "PhoQ-PhoP variant library, together with: 10 µM Mg2+", "how to read": "relative to: high Mg2+ state, higher = stronger signaling", "quantity": "fold induction", "result": 4.78}
{"Substance": "P1 F9Q", "target": "CCNB1", "assay": "yeast growth competition, sequencing", "test system": "yeast", "setting": "weak parent motif", "how to read": "relative to: not given, higher = stronger binding", "quantity": "normalised enrichment score", "result": 0.117}
{"Substance": "P2 Q10A", "target": "CCNB2, cyclin fold, Cln2 fusion (human)", "assay": "yeast growth competition, sequencing", "test system": "yeast", "setting": "weak parent motif", "how to read": "relative to: not given, higher = stronger binding", "quantity": "normalised enrichment score", "result": 0.679}
{"Substance": "P3 S2Q", "target": "CCNA2, cyclin fold, Cln2 fusion (human)", "assay": "yeast growth competition, sequencing", "test system": "yeast", "setting": "strong parent motif", "how to read": "relative to: not given, higher = stronger binding", "quantity": "normalised enrichment score", "result": 2.84}
{"note": "For quick reference, copied from above (sample 2):"}
{"Sequence": "GGGAGUUCUACAGUCCGACGAUCAAGUCCUGUGCUACACAUCGUAUGUACCGAAUCGGGGUUUUGGUUUUGGGUUUUGGGAAAGUAUUAUGUUACGCCGUUCGGAUCUGCACUUGGAAUUCUCGGGUGUCAAGG", "log2 enrichment": 0.0933}
